{"data": "Assay results from different studies", "note": "Lines come from different studies, so protocols differ. “And” joins repeats or separate records; there may be more than shown. Numbers after ± are the reported error."}
{"SMILES": "NCCOc1cc(C(=O)Nc2cc(OCCN3CCCC3)c3ccccc3n2)nc(C(=O)Nc2cc(OCCN3CCCC3)c3ccccc3n2)c1", "target": "Bcl2 G-quadruplex DNA", "assay": "FRET melting", "setting": "1 µM, pH 7.4, with: 60 mM potassium", "endpoint": "ΔTm", "result": "5.9 ± 0.7 K"}
{"SMILES": "C[N+](C)(C)CCCn1c(=O)c2cc(Br)c3c(=O)n(CCC[N+](C)(C)C)c(=O)c4c5[nH]c6ccccc6[nH]c5c(c1=O)c2c34.[I-].[I-]", "target": "HIV-1 LTR-III G-quadruplex", "assay": "FRET melting", "setting": "0.25 µM, K+ 100 mM", "endpoint": "ΔTm", "result": "5.5 ± 0.1 °C"}
{"SMILES": "C#Cc1cc(-c2cc(Nc3nc(N[C@@H](C)c4ccc(F)cn4)ncc3Cl)n[nH]2)ccc1C=O", "target": "PRKAR1A-RET kinase fusion, human", "assay": "kinase activity, inhibitor", "setting": "0.2 µM", "endpoint": "inhibition", "result": "17.3% and 20.1%"}
{"SMILES": "CCCCN1CCCC[C@@H]1C(=O)Nc1c(C)cccc1C", "target": "human H+/organic cation antiporter", "system": "hCMEC/D3", "setting": "250 µM, 2 min, with: 1 µM DPH preloading 30 min", "scale": "reference: control", "endpoint": "trans-stimulation ratio", "result": 0.59}
{"SMILES": "CN(C)CCCn1c(=O)c2cc(Br)c3c(=O)n(CCCN(C)C)c(=O)c4c5[nH]c6ccc([N+](=O)[O-])cc6[nH]c5c(c1=O)c2c34", "target": "HIV-1 LTR-III G-quadruplex", "assay": "FRET melting", "setting": "0.25 µM, K+ 100 mM", "endpoint": "ΔTm", "result": "2.5 ± 0.1 °C"}
{"SMILES": "CSc1cc(Oc2ccnc3[nH]c(=O)cnc23)ccc1NC(=O)Nc1cc(C(C)(C)C)nn1-c1ccccc1", "target": "p90 ribosomal S6 kinases 1-3", "assay": "reverse phase protein array", "system": "patient-derived B cell clone line, human", "setting": "1 µM, 4 h", "scale": "reference: DMSO", "endpoint": "phospho-Thr359/Ser363 RSK1-3 to total ratio", "result": 0.95}
{"SMILES": "Nc1ccccc1NC(=O)c1ccc(CNc2ccc(NC3=C(Cl)C(=O)c4cccnc4C3=O)cc2)cc1", "target": "HDAC1-3", "assay": "inhibitor, western blot", "system": "MDA-MB-231", "setting": "concentration not given, 6 h", "endpoint": "histone H3/H4 acetylation", "result": "increased"}
{"SMILES": "NCCOc1cc(C(=O)Nc2cc(OCCN)c3ccccc3n2)nc(C(=O)Nc2cc(OCCN)c3ccccc3n2)c1", "target": "Bcl2 G-quadruplex DNA", "assay": "FRET melting", "setting": "1 µM, pH 7.4, with: 60 mM potassium", "endpoint": "ΔTm", "result": "19.2 ± 0.9 K"}
{"SMILES": "CN(C)CCCn1c(=O)c2cc(Br)c3c(=O)n(CCCN(C)C)c(=O)c4c5[nH]c6ccc(C(=O)O)cc6[nH]c5c(c1=O)c2c34", "target": "HIV-1 LTR-III G-quadruplex", "assay": "FRET melting", "setting": "0.25 µM, K+ 100 mM", "endpoint": "ΔTm", "result": "3.7 ± 1 °C"}
{"SMILES": "NC(=O)C1=CN([C@@H]2O[C@H](COP(=O)(O)OP(=O)(O)OC[C@H]3O[C@@H](n4cnc5c(N)ncnc54)[C@H](O)[C@@H]3O)[C@@H](O)[C@H]2O)C=CC1", "target": "FSP1 L323A mutant", "assay": "substrate", "setting": "with: 100 µM co-substrate", "endpoint": "kcat", "result": "10.9 ± 0.57 s⁻¹"}
{"SMILES": "Oc1ccccc1-c1n[nH]cc1-c1ccnc2ccccc12", "target": "orf19.3456 Candida albicans", "assay": "kinase binding, MIB/MS competition", "system": "Candida albicans lysate", "setting": "1 µM", "scale": "reference: DMSO", "endpoint": "log2 fold change", "result": 0.11}
{"SMILES": "COc1cc(C(=O)Nc2cc(OCCN3CCCC3)c3ccccc3n2)nc(C(=O)Nc2cc(OCCN3CCCC3)c3ccccc3n2)c1", "target": "Bcl2 G-quadruplex DNA", "assay": "FRET melting", "setting": "1 µM, pH 7.4, with: 60 mM potassium", "endpoint": "ΔTm", "result": "7.1 ± 1.1 K"}
{"SMILES": "N#Cc1ccc2c(-c3ccncc3)c(-c3ccc(F)cc3)nn2c1", "target": "orf19.4518 kinase Candida albicans", "assay": "MIB/MS competition binding", "system": "Candida albicans cell lysate", "setting": "100 nM", "scale": "reference: DMSO, lower = stronger binding", "endpoint": "log2 fold change", "result": -0.304}
{"SMILES": "COc1cc(C(=O)NS(=O)(=O)c2ccccc2C)ccc1Cc1cn(C)c2ccc(NC(=O)OC3CCCC3)cc12", "target": "native VRAC", "assay": "ion current, inhibitor, whole-cell patch clamp", "system": "wild-type HCT cells", "setting": "3 µM, pH 7.4, extracellular pH", "endpoint": "inhibition", "result": "-26.4% and 4.17% and 42.9% and 11.9% and -17%"}
{"SMILES": "c1ccc(-c2n[nH]cc2-c2ccnc3ccccc23)nc1", "target": "orf19.4518 kinase Candida albicans", "assay": "MIB/MS competition binding", "system": "Candida albicans cell lysate", "setting": "100 nM", "scale": "reference: DMSO, lower = stronger binding", "endpoint": "log2 fold change", "result": 0.949}
{"SMILES": "CCCCC(CC)C(C)c1ccc(O)cc1 (centres unmarked)", "target": "HBV core protein Cp149 dimer", "assay": "solution NMR", "setting": "4 molar equivalents, pH 7.5, 295 K, average over eight residues", "scale": "reference: apo Cp149 dimer", "endpoint": "average chemical shift perturbation", "result": "0.024 ppm"}
{"SMILES": "CCCCCCCCCCCCCCCC(=O)Oc1ccc([N+](=O)[O-])cc1", "target": "Candida rugosa lipase", "assay": "substrate, p-nitrophenol release", "setting": "free enzyme, optimal conditions", "endpoint": "Km", "result": "0.27 ± 0.02 µM"}
{"SMILES": "N#Cc1ccn2c(-c3ccncc3)c(-c3ccc(F)cc3)nc2c1", "target": "orf19.4518 kinase Candida albicans", "assay": "MIB/MS competition binding", "system": "Candida albicans cell lysate", "setting": "10 µM", "scale": "reference: DMSO, lower = stronger binding", "endpoint": "log2 fold change", "result": 0.0728}
{"SMILES": "CN(C(=O)n1cnc(-c2ccc[n+]([O-])c2)c1)C1CCCCC1", "target": "FAAH (cynomolgus monkey)", "system": "cynomolgus monkey, leukocytes", "setting": "dose not given, 168 h", "endpoint": "recovery of activity", "result": "~50%"}
{"SMILES": "NCCOc1cc(NC(=O)c2cccc(C(=O)Nc3cc(OCCN)c4ccccc4n3)n2)nc2ccccc12", "target": "Bcl2 G-quadruplex DNA", "assay": "FRET melting", "setting": "1 µM, pH 7.4, with: 60 mM potassium", "endpoint": "ΔTm", "result": "14.7 ± 0.8 K"}
{"SMILES": "Cc1n[nH]c2ccc(-c3cc(OC[C@@H](N)Cc4ccccc4)cnc3-c3ccoc3)cc12", "target": "orf19.4518 kinase Candida albicans", "assay": "MIB/MS competition binding", "system": "Candida albicans cell lysate", "setting": "1 µM", "scale": "reference: DMSO, lower = stronger binding", "endpoint": "log2 fold change", "result": -0.0109}
{"SMILES": "NCCOc1cc(NC(=O)c2cc(OCc3c[nH]nn3)cc(C(=O)Nc3cc(OCCN)c4ccccc4n3)n2)nc2ccccc12", "target": "Bcl2 G-quadruplex DNA", "assay": "FRET melting", "setting": "1 µM, pH 7.4, with: 60 mM potassium", "endpoint": "ΔTm", "result": "14.4 ± 0.9 K"}
{"SMILES": "N[C@@H]1CONC1=O", "target": "human H+/organic cation antiporter", "system": "hCMEC/D3", "setting": "250 µM, 2 min, with: 1 µM DPH preloading 30 min", "scale": "reference: control", "endpoint": "trans-stimulation ratio", "result": 1.25}
{"SMILES": "NCCCOc1cc(NC(=O)c2cc(OCc3c[nH]nn3)cc(C(=O)Nc3cc(OCCCN)c4ccccc4n3)n2)nc2ccccc12", "target": "Bcl2 G-quadruplex DNA", "assay": "FRET melting", "setting": "1 µM, pH 7.4, with: 60 mM potassium", "endpoint": "ΔTm", "result": "14.3 ± 0.8 K"}
{"SMILES": "c1coc(-c2n[nH]cc2-c2ccnc3ccccc23)c1", "target": "RIM15 (Candida albicans)", "assay": "kinase binding, MIB/MS competition", "system": "Candida albicans lysate", "setting": "1 µM", "scale": "reference: DMSO", "endpoint": "log2 fold change", "result": 0.44}
{"SMILES": "CSCC[C@@H]1NC(=O)[C@H](C)NC(=O)[C@H](CCC(N)=O)NC(=O)[C@H](CCCNC(=N)N)NC(=O)[C@H](Cc2c[nH]c3ccccc23)NC(=O)CNC(=O)[C@H](CCSC)NC(=O)[C@@H]2CCCN2C(=O)[C@H](C)NC(=O)[C@@H](NC(=O)CN)CSSC[C@@H]2NC(=O)CNC(=O)[C@H](C)NC(=O)[C@H](CC(C)C)NC(=O)[C@@H]3CSSC[C@@H](C(=O)NCC(=O)O)NC(=O)[C@H](Cc4ccccc4)NC(=O)CNC(=O)[C@H](CC(N)=O)NC(=O)[C@@H]4CCCN4C(=O)CNC(=O)[C@H](CSSC[C@H](NC(=O)[C@H](CCCNC(=N)N)NC1=O)C(=O)N[C@@H](CCCCN)C(=O)N[C@@H](CCC(N)=O)C(=O)N[C@@H](CC(=O)O)C(=O)N[C@@H](CO)C(=O)N[C@@H](CC(=O)O)C(=O)N3)NC(=O)[C@H](C(C)C)NC2=O", "target": "alternative complement pathway", "assay": "inhibitor, ELISA, item: C5b-9", "system": "serum, normal human, 5.5%", "setting": "1 h, 37 °C, LPS-coated plate", "endpoint": "IC50", "result": "280 nM"}
{"note": "For quick reference, copied from above:"}
{"SMILES": "COc1cc(C(=O)NS(=O)(=O)c2ccccc2C)ccc1Cc1cn(C)c2ccc(NC(=O)OC3CCCC3)cc12", "target": "native VRAC", "assay": "ion current, inhibitor, whole-cell patch clamp", "system": "wild-type HCT cells", "setting": "3 µM, pH 7.4, extracellular pH", "endpoint": "inhibition", "result": "-26.4% and 4.17% and 42.9% and 11.9% and -17%"}
{"SMILES": "c1ccc(-c2n[nH]cc2-c2ccnc3ccccc23)nc1", "target": "orf19.4518 kinase Candida albicans", "assay": "MIB/MS competition binding", "system": "Candida albicans cell lysate", "setting": "100 nM", "scale": "reference: DMSO, lower = stronger binding", "endpoint": "log2 fold change", "result": 0.949}
{"SMILES": "CCCCC(CC)C(C)c1ccc(O)cc1 (centres unmarked)", "target": "HBV core protein Cp149 dimer", "assay": "solution NMR", "setting": "4 molar equivalents, pH 7.5, 295 K, average over eight residues", "scale": "reference: apo Cp149 dimer", "endpoint": "average chemical shift perturbation", "result": "0.024 ppm"}
{"SMILES": "CCCCCCCCCCCCCCCC(=O)Oc1ccc([N+](=O)[O-])cc1", "target": "Candida rugosa lipase", "assay": "substrate, p-nitrophenol release", "setting": "free enzyme, optimal conditions", "endpoint": "Km", "result": "0.27 ± 0.02 µM"}
